Assay results pooled from the literature.
Protocols differ between the studies behind these lines. Numbers after ± are the reported error.

Structure (SMILES)	test	test system	conditions	pKa
CCC(C)n1ncn(-c2ccc(N3CCN(c4ccc(OCC5COC(Cn6cncn6)(c6ccc(Cl)cc6Cl)O5)cc4)CC3)cc2)c1=O (stereo not shown)	–	–	monoprotic base	3.6
O=C(O)CNC(=O)c1nc(Cl)c2ccccc2c1O	–	–	second acidic centre	6.8
NCCOCC(=O)N1CCC[C@H](C(=O)NCc2nc(-c3ccc(C(F)(F)F)cc3)cs2)C1	potentiometric titration	–	–	9.8
COCCc1ccc(OCC(O)CNC(C)C)cc1 (stereo not shown)	n-hexane/buffer partitioning	aqueous	pH 7	9.71 ± 0.05
CCCCCCCCCCN(C)C	extrapolated from shorter analogues	–	–	10
O=C(O)c1c(O)c(-c2ccccc2)nc2ccccc12	–	–	second acidic centre	9.5
CC1CCN(S(=O)(=O)c2ccc(Cl)c(C(=O)Nc3ccc(C(=O)O)cc3)c2)CC1	–	–	–	3.77
CCCCCCCCCCCCCCN(C)C	extrapolated from shorter analogues	–	–	10
CCc1nnc(NS(=O)(=O)c2ccc(NC(=O)c3ccc(F)cc3)cc2)s1	–	–	–	4.72
CCCCCCCCCCCCNC	extrapolated from shorter analogues	–	–	10.8
Cc1ccc2cccc(O)c2n1	capillary electrophoresis	–	–	9.6
CC(C)(C)N1Cc2cccc(n2)CN(C(C)(C)C)Cc2cccc(n2)C1	–	0.1 M NaCl	25 °C, H2L2+ deprotonation	7.71
Cc1ccccc1CN1C(=O)C2=C(CCN(Cc3ccccc3)C2)N2CCN=C12	potentiometric titration	water	first of two pKa	6.76
CCOc1ccc(C(C)=O)cc1Cc1c(O)nc(N)nc1O	–	–	–	7.23
O=C1c2c(O)cc(O)cc2O[C@H](c2cc(O)c(O)c(O)c2)[C@H]1O	UV-Vis spectroscopy	–	–	7 to 8
O=C(O)CNC(=O)c1ncc(-c2cccc(F)c2)cc1O	–	–	second acidic centre	7.7
C=C(F)C(=O)N1CCN(c2nc(OC[C@@H]3CCCN3C)nc3c2CCN(c2cccc4cccc(Cl)c24)C3)C[C@@H]1CC#N	potentiometric	–	first basic pKa	3.33
CO[C@@H]1[C@H](O)[C@@H](CO)O[C@H]1n1c([N+](=O)[O-])nc2c(=O)[nH]c(N)nc21	UV absorption, item: N1 deprotonation	water	25 °C	8.33
COC(=O)c1ccccc1Oc1nc(NC(C)C)nc(NC(C)C)n1	–	–	–	3.18

Structure (SMILES)	test	test system	conditions	pKa
O=C(NCCN1CCCC1)c1cc(-c2ccc(CN3CCOCC3)cc2)nc2ccc(F)cc12	potentiometric titration	water with 10% DMSO	second pKa	6.82 ± 0.04
COc1cc(NC(=O)c2ccc3cc(C(=N)N)ccc3c2)cc(OC(C)C)c1	–	–	–	10.8
O=S([O-])(=S)c1ccccc1.[Na+]	–	–	–	~1.32
NC(=O)c1ccc(C(=O)Nc2cc(C3CC3)[nH]n2)cc1	–	–	–	3.05
N#Cc1ccc([C@H]2CCc3cncn32)c(F)c1	–	–	–	6.9
O=C(O)C(F)(F)F	19F NMR titration	MeOH/water	27 °C	0.03
CCCC(=O)Nc1cc(C2CC2)[nH]n1	–	–	–	2.89
CC(=O)C(C)n1ncn(-c2ccc(N3CCN(c4ccc(OC[C@H]5CO[C@](Cn6cncn6)(c6ccc(Cl)cc6Cl)O5)cc4)CC3)cc2)c1=O (stereo partly shown)	–	–	–	3.33
CCCCC1=NC2(CCCC2)C(=O)N1Cc1ccc(-c2ccccc2S(=O)(=O)Nc2noc(C)c2C)c(COCC)c1	–	–	basic	4.09
O=C(O)CNC(=O)c1c(O)cc(CCc2ccccc2)n2ncnc12	–	–	second acidic centre	7
CN1CCC(COc2cnc(-c3cccc(Cn4nc(-c5cccc(C#N)c5)ccc4=O)c3)nc2)CC1	–	–	pKa 2	2.8
CC(C)(C)c1ccc(CN2CCN(C(c3ccccc3)c3ccc(Cl)cc3)CC2)cc1 (stereo not shown)	acid-base titration	water	20 °C	3.73
Cc1ccc2ccc(C#N)c(O)c2n1	capillary electrophoresis	–	–	7.1
N[C@@H]1C[C@]1(F)c1ccc(C(F)(F)F)cc1 (relative stereo)	titration	–	21 °C, with: 0.1 M KNO3	7
CCOc1ccc2nc(S(N)(=O)=O)sc2c1	–	–	sulfonamide group	7.82
C=CCOc1cccc(C(=O)O)c1	UV-metric	–	25 °C, aqueous extrapolated	3.9
CCCCCCCCCCCCCCCCNC	extrapolated from shorter analogues	–	–	10.8
O=C(O)c1ccc(C(=O)Nc2cc(C3CC3)n[nH]2)cc1	–	–	–	2.79

For quick reference, copied from above:
Structure (SMILES)	test	test system	conditions	pKa
CC(C)(C)c1ccc(CN2CCN(C(c3ccccc3)c3ccc(Cl)cc3)CC2)cc1 (stereo not shown)	acid-base titration	water	20 °C	3.73
Cc1ccc2ccc(C#N)c(O)c2n1	capillary electrophoresis	–	–	7.1
N[C@@H]1C[C@]1(F)c1ccc(C(F)(F)F)cc1 (relative stereo)	titration	–	21 °C, with: 0.1 M KNO3	7
CCOc1ccc2nc(S(N)(=O)=O)sc2c1	–	–	sulfonamide group	7.82
C=CCOc1cccc(C(=O)O)c1	UV-metric	–	25 °C, aqueous extrapolated	3.9
